Published values collected from several papers.
Numbered parts are unrelated; each lists some results of a single study.

Sample 1
Target: Interferon regulatory factor 5, full length, phosphomimetic (IRF5, Homo sapiens, UniProt Q13568-2, residues 1-514, S451D/S453D/S456D/S462D)
Technique: protein-binding microarray
Form: double-stranded DNA, one strand shown
Sample: in vitro
Tested at: 940 nM top
Setting: 60-bp whole probe
Together with: salmon DNA 0.4 mg/ml
Baseline: random background probes
Reading: higher = stronger binding
Constant ends, left off below: GCCTAGCAC … GTCTTGATTCGCTTGACGCTGCTG
Sequence | fitted relative affinity [z-score]
TTAGGTATCGACACTGGGATAGTGCTA | 4.33
GGCGGTTTCGGTATCGGGACGTGCTAG | 14.2
CTATGAAGTCATGTCTTCAGGTGCTAG | -0.758
GACGAACTGGGGTATCGAGAAGTGCTA | 0.887
CCATTTCTGTTTTTGCTTTCGTGCTAG | 2.8
GATGATATCAGTCTCGAGACGTGCTAG | 1.21
TACGATATCGGGTTTCGAGACGTGCTA | 2.24
TCAGATTTCAGTTTCTCACTGTGCTAG | 1.44
CCCCATCTTGTTCCCAGAGAGTGCTAG | 0.868
ACAGGACAGTCCCATCTACCGTGCTAG | -0.342
ACCTAATTCACTATTACCAAGTGCTAG | 0.653
CTGATTTTGCTTTCATTTATGTGCTAG | 1.87
CACGATTTCAGTTTCGAGACGTGCTAG | 4.73
TTATCAATCATTTTAGTTTTGTGCTAG | 0.764
ATATACCTGTATATCTTCAGGTGCTAG | 0.245
GACGATCTTAGTTTCGAGACGTGCTAG | 4.76
GACGGTATTCTTATCCTGACGTGCTAG | 0.562
ATTGCTTTCTCTTTCACTACGTGCTAG | 3.5
TTAAGACTGGGGTATCGGTTAGTGCTA | 3.22
GACGGACTGGACTATCGCGACGTGCTA | -0.551
TTAGGACTGGGTCTCTGTTAGTGCTAG | 0.0458
TCAATCGTAAGCAAAAAACTGTGCTAG | -0.361
GACGATTTCCGTTCCGAGACGTGCTAG | 0.496
AGTTTTCTCATTCGTCATTTCGTGCTA | 3.28
TTAGGGTTCGGGTTTCGGTTAGTGCTA | 6.2

Sample 2
Target: RNA binding protein fox-1 homolog 2, RRM domain, GST-SBP tag (RBFOX2, Homo sapiens, UniProt O43251-10, residues 100-194)
Technique: RNA Bind-n-Seq
Form: RNA
Sample: in vitro
Tested at: 365 nM
Setting: natural RNA segment, single round, ends assumed
Baseline: no-protein control
Reading: higher = stronger binding
Constant ends, left off below: GGGAGUUCUACAGUCCGACGAUC … UGGAAUUCUCGGGUGCCAA
Construct (chain): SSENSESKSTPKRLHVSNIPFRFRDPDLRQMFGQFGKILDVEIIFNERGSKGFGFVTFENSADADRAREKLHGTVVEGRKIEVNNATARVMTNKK
Sequence | RBNS enrichment (R)
UGAGAGCCUGGCCAGGUGGCCCUCCGUGUGAGGUCAUGGUCACAGCAUAGUUUGGAGCUAGGGAGGGACUGUCAGCCUGGAGGUUUGGAGACUCAUUCUGGAAUCUAGUG | 2.5
ACUGAUCUUUUAAUGGAAUUUCUUUGAAAUCAAAUCCAUAACUGAUUCUAUUAAGAUACAAUAGCUAAAGUUGGGGAAUAACUUCAGGUAAAAACUGCAAGUCUUGAAGA | 0.292
CCCCACCCCAGCUGUAGUUAAUUUCAGUGCCUUACAAAUCCUAAGCUCAGAGAAAGUUCCAUUUCCGUUCCAGAGGGAAGGGAACCUCCCUAGGUCCUUCCCUGGCUUGU | 1.04
AUCAGCCAUCUUUGCAUAUCCCUUUCACAUCUACCUUCACACAGGAAAGCUGAAUGCAUUUUACCAGUGAGGCUCUAGAUAUGAAACUUAGGGAUCCAUAGAUAAAUAAG | 0.484
GGACUGGUCCCGGGUGCCUUCCAAGCACAGUCUCCAUGCUCCCAGAUUCUCGACCUUCCCCCGGCCCGGGAGGUGCAGCCUGCGUCUGCCUCUGUCGUGUGUGCUGAUUU | 0.316
AGACGCCAGAGCUGGCGGGGCAGGAGGACGCUGUACGGAUGCAGCAGCUGAAAAUGAAGGUAAUUAAAACCAUGGAGGCGAUCAGCGAGGUUCUCCAGGACCUUAGGUUU | 0.906
CCUGUGAAGUGACAGGUGUGGACCCUGAGGGUGCGGUGGUGAGCACACUGUCUCCUGCUGGCAUUCACCCCACUCAUGCUGGAAAGGAAGAUCCAGAUCGUACAAAAAUU | 0.445
GCCUUUUGGAAAACAUCAACAGCUGUUUAGAAAUGCAGCUGUAGUCUAUGAUUUUCUCUCCAGACUCAUUGAAAAAGCUUCAGUCAACAGAAAGCCUCAGCUACCUCAGC | 0.361
CGAAAGGGGCAAGGGCUAAGGCAGAUGAUAAUCUGAAGCUAGAUUAAACAGUCUAGGUGCUCCUAACAACCACCCCCUGCCCGGGCCUCUCCUUUGUGAGCCACAGUUGU | 0.243
AGGACUGGGAGUGAGGGAGCCAGAGGGAGCAGCUCCCCCACCCAUGGCAUCUCUCGCCUCCCUCGCUCGUCUCAGCCCAGCCCUGGAAGACUGAGAAUGUUCCCCCAAAU | 0.517
AAAACACGUUGCCUGUUUUCAGUUAACACUGGUAAUGCCAUUUUAAUAUAUGGCUUUUUCAAAUCAGUUCAGUGAAAAUAGUACAGAUUUAGGUUUACAUAACUACUCUG | 0.256
UGACAAACCUAUCUCUUGGACUCAAGUUGGAUUGAUCAAGUUGAACCCUUUGAACCUGAUGUGACUUCAGCAAUAACCUUCACCUGACUCUGGAGCCUCCGUCUCUUCGA | 0.301

Sample 3
Target: Prothrombin, mature alpha-thrombin (F2, Homo sapiens, UniProt P00734)
Technique: aptamer microarray, sandwich
Form: DNA with 2'F-ANA
Sample: in vitro
Tested at: 200 nM
Setting: whole 15-mer aptamer, many near background
Together with: Cy3 exosite-II aptamer, 400 nM
Reading: higher = stronger binding
Sequence: GGTTGGTGTGGTTGG
Modification | mean fluorescence intensity
2'F-ANA at 4 6 7 8 9 10 11 14 | 66.1 a.u.
2'F-ANA at 1 6 8 11 12 14 15 | 70.7 a.u.
2'F-ANA at 1 2 3 4 6 8 11 12 13 15 | 278 a.u.
2'F-ANA at 7 8 9 10 13 | 160 a.u.
2'F-ANA at 4 5 9 10 11 12 13 14 15 | 50.3 a.u.
2'F-ANA at 1 2 3 7 8 10 11 13 15 | 63.7 a.u.
2'F-ANA at 2 5 7 8 11 12 13 | 117 a.u.
2'F-ANA at 1 4 5 6 7 8 9 10 | 47.8 a.u.
2'F-ANA at 1 2 3 4 5 6 7 8 10 12 13 15 | 51.6 a.u.
2'F-ANA at 1 2 3 4 5 7 8 9 10 12 15 | 51.5 a.u.
2'F-ANA at 1 2 5 8 9 12 13 14 | 45.4 a.u.
2'F-ANA at 1 2 3 4 5 6 7 8 12 14 15 | 49.5 a.u.
2'F-ANA at 1 2 3 5 6 7 8 9 11 13 14 | 46.4 a.u.
2'F-ANA at 3 4 5 7 9 | 101 a.u.
2'F-ANA at 1 2 4 5 7 8 12 | 113 a.u.
2'F-ANA at 1 3 9 10 11 | 121 a.u.
2'F-ANA at 2 4 5 8 9 10 12 | 54.4 a.u.
2'F-ANA at 2 5 6 8 9 12 14 | 49.5 a.u.
2'F-ANA at 2 4 6 8 10 12 14 15 | 83.7 a.u.
2'F-ANA at 1 3 4 8 | 264 a.u.
2'F-ANA at 1 3 6 7 8 10 11 13 15 | 72.5 a.u.
2'F-ANA at 2 3 5 6 8 10 11 13 14 15 | 54.5 a.u.

Sample 4
Target: PABPC1L2, full length, GST fusion (mouse, UniProt A0ABA7IW68)
Technique: RNAcompete
Form: RNA
Sample: in vitro
Tested at: 20 nM
Setting: 7-mer, probes averaged, single round
Baseline: mean of 7-mers
Reading: higher = stronger binding
Construct (chain): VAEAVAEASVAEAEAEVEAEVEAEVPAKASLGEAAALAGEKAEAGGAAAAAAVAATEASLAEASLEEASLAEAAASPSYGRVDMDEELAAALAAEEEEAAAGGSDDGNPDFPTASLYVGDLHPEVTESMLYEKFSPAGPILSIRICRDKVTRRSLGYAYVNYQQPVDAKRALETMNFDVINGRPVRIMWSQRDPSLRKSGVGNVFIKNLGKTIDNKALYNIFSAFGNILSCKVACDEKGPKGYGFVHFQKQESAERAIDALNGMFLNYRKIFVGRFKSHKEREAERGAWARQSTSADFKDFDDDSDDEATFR
Sequence | 7-mer Z-score
GAUACGG | -0.00108
UUCCAAC | -0.229
AUCUAAC | -0.199
GGUUGGA | 0.0623
CCUUGCG | -0.382
GUUCUGG | -0.284
UAAUCGG | -0.0627
CCGUUCU | -0.391
GAGAACC | 0.0116
GGUAAAU | 0.492
CUUGUUU | -0.412
UUCGAAA | 0.144
CGUCGGA | -0.258
UCGUAGA | -0.238
UGCCUUU | -0.135
GUACAAC | 0.000733
GACAGAA | 0.329
GGCUGGG | 0.0986
ACCCCGA | -0.257
CGUGCUU | -0.206
CAUCGCA | -0.171
CAAGGGA | 0.311
UCGACAA | -0.0192
CUCCUUA | -0.331
GGAGCAU | -0.012

A few entries again (sample 1):
Sequence | fitted relative affinity [z-score]
AGTTTTCTCATTCGTCATTTCGTGCTA | 3.28
GACGGTATTCTTATCCTGACGTGCTAG | 0.562
ACCTAATTCACTATTACCAAGTGCTAG | 0.653
TTAAGACTGGGGTATCGGTTAGTGCTA | 3.22
ATATACCTGTATATCTTCAGGTGCTAG | 0.245
TTAGGACTGGGTCTCTGTTAGTGCTAG | 0.0458
TCAATCGTAAGCAAAAAACTGTGCTAG | -0.361
GACGATTTCCGTTCCGAGACGTGCTAG | 0.496
CCATTTCTGTTTTTGCTTTCGTGCTAG | 2.8
GACGGACTGGACTATCGCGACGTGCTA | -0.551
ACAGGACAGTCCCATCTACCGTGCTAG | -0.342
CCCCATCTTGTTCCCAGAGAGTGCTAG | 0.868
GGCGGTTTCGGTATCGGGACGTGCTAG | 14.2
